{"data": "Measurements pooled from the literature", "note": "Each numbered part is a random draw from the data of one study; scales do not carry over between parts. Substitutions count along the parent as printed."}
{"data": "Study 1", "target": "CCNA1, cyclin fold, Cln2 fusion (human)", "method": "yeast growth competition, sequencing", "sample": "yeast", "notes": "weak parent motif", "reference": "not given", "reading": "higher = stronger binding", "parent": "BRCA2 docking peptide (human); PSIKRNLLNEFDR"}
{"Substitution": "E10Y", "normalised enrichment score": 0.618}
{"Substitution": "F11Q", "normalised enrichment score": 0.164}
{"Substitution": "N6K", "normalised enrichment score": 0.828}
{"Substitution": "N6V", "normalised enrichment score": 0.173}
{"Substitution": "F11P", "normalised enrichment score": 0.321}
{"Substitution": "L7K", "normalised enrichment score": 0.35}
{"Substitution": "R5Q", "normalised enrichment score": 0.53}
{"Substitution": "N6C", "normalised enrichment score": 0.187}
{"data": "Study 2", "target": "Protein C-ets-1 (ETS1, Homo sapiens, UniProt P14921, residues 1-441, full length assumed)", "method": "protein-binding microarray", "form": "double-stranded DNA, one strand shown", "sample": "in vitro", "tested at": "not given", "notes": "k-mer, scored over probes, only values ≥0.25", "reading": "higher = stronger binding", "Target sequence (chain)": "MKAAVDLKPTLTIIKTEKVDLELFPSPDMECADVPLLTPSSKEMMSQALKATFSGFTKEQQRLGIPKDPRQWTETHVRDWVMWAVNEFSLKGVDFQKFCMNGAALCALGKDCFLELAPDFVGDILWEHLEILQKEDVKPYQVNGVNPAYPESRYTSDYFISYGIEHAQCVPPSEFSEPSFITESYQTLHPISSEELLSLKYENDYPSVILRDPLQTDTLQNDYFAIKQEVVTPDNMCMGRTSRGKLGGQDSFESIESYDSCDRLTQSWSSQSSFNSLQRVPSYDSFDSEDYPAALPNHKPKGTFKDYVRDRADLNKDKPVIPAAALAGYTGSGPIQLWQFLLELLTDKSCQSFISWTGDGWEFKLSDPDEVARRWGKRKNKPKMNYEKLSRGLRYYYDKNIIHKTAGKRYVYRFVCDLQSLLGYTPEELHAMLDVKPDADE"}
{"Oligonucleotide": "ATCCGCCA", "E-score": 0.42}
{"Oligonucleotide": "CAACTTCC", "E-score": 0.474}
{"Oligonucleotide": "CGACATCC", "E-score": 0.41}
{"Oligonucleotide": "ATTTCCGG", "E-score": 0.497}
{"Oligonucleotide": "TCCGGTCA", "E-score": 0.465}
{"Oligonucleotide": "GCCGGATA", "E-score": 0.471}
{"Oligonucleotide": "ATGACCGG", "E-score": 0.266}
{"Oligonucleotide": "AATCTTCC", "E-score": 0.281}
{"data": "Further values, each from its own experiment"}
{"Molecule": "BOP1 (Homo sapiens, UniProt Q14137)", "target or system": "RPL7L1 (Homo sapiens, UniProt Q6DKI1)", "test": "cross-linking MS", "system": "cell fractions", "conditions": "with: DSSO", "endpoint": "cross-linked residues", "result": "K391 to K17"}
{"Molecule": "AKATGRYNL", "target or system": "HLA class I histocompatibility antigen, A alpha chain, allele A*80:01 (Homo sapiens, UniProt P04439)", "test": "peptide-MHC binding", "system": "peptide", "conditions": "concentration not given", "endpoint": "binding", "result": "inactive"}
{"Molecule": "YWHAQ (Homo sapiens, UniProt P27348)", "target or system": "YWHAZ (Homo sapiens, UniProt P63104)", "test": "cross-linking MS", "system": "cell fractions", "conditions": "with: DSSO", "endpoint": "cross-linked residues", "result": "K9 to K85"}
